Experimental data collected from several papers.
Numbered parts are unrelated; each lists some results of a single study. Substitutions count along the parent as printed.

Sample 1 — technique: protein binding microarray; molecule type: double-stranded DNA, one strand shown; matrix: in vitro; tested at: not given; relative to: not given; direction: higher = stronger binding
Target: Histone acetyltransferase KAT6A, both winged helices, GST fusion (KAT6A, Homo sapiens, UniProt Q92794, residues 1-181)
Notes: 8-mer, flanks averaged, mean of 2 arrays, mostly near background
Target sequence (chain): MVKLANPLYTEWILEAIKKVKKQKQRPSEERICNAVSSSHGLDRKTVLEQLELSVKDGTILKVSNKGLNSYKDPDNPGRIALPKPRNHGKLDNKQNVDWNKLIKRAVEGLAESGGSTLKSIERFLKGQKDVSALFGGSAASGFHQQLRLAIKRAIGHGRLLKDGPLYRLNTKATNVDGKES
Strand	E-score
ATACACTA	-0.17
CAAGTGAG	-0.192
ATAGCCCC	-0.106
ACAATGGA	-0.0991
ATCCAAGA	-0.139
ATAAATGC	-0.0674
GCTGCAAA	-0.0256
ACCTATCA	-0.0791
ATGCCCAC	-0.201
GGTAGTAA	-0.126
AGGGAGAC	-0.0857
ACTGTTAG	-0.0381
ATCGACCG	0.17
ACCAGTGC	-0.0698
CAACTTCG	-0.0327
CGCATTTC	0.144
ACGGCGTC	0.319
AACCTAAA	-0.103
AGTTTTTC	0.0451
AGATTTAG	-0.243
GACGTCCA	-0.00387
ACTTCTAC	-0.145
CGCCAGCC	0.138
GGCAAGAC	0.123

Sample 2 — target: CCNE2, cyclin fold, Cln2 fusion (human); technique: yeast growth competition, sequencing; matrix: yeast; notes: strong parent motif; relative to: not given; direction: higher = stronger binding
Parent: CCP110 docking peptide (human); EKVKRRLDLDIDG; partner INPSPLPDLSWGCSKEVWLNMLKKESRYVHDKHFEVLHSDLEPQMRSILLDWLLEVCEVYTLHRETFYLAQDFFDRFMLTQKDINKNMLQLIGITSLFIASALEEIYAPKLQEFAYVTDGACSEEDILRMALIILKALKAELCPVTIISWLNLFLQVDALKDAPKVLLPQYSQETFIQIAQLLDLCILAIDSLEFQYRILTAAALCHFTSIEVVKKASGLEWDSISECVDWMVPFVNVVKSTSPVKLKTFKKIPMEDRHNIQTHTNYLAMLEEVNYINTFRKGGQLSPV
Variant	normalised enrichment score
EKAKRRLDLDIDG [V3A]	0.909
EKVKRALDLDIDG [R6A]	0.486
EKVKRRLDLDIAG [D12A]	1.76
EKVKRRLDADIDG [L9A]	0.225
EKVKRRLDFDIDG [L9F]	5.77
EKVARRLDLDIDG [K4A]	-0.363
AKVKRRLDLDIDG [E1A]	1.91

Sample 3 — technique: RNAcompete; molecule type: RNA; matrix: in vitro; tested at: 20 nM; notes: 7-mer, probes averaged, single round; relative to: mean of 7-mers; direction: higher = stronger binding
Target: PABPC1L2, full length, GST fusion (mouse, UniProt A0ABA7IW68)
Target sequence (chain): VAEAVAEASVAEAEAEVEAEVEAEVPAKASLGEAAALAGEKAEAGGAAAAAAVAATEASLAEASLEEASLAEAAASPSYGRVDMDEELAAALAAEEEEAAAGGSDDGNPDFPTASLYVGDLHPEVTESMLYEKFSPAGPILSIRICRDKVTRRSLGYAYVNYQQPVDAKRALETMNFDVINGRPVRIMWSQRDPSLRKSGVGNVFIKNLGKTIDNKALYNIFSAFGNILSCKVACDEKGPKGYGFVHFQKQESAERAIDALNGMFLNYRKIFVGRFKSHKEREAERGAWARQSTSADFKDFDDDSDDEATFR
Strand	7-mer Z-score
AAAAAUC	14.2
AGUACGA	-0.112
GUAUUUC	-0.331
AGCUACG	-0.219
UAAGUGC	-0.119
AACGAUA	0.274
CGUACUG	-0.157
GGUUGUG	-0.246
UUCGAUC	-0.304
AUCGCAA	0.00617
CCGGGGG	-0.0156
CCAUGAG	-0.184
AAGAUUC	0.175
CAGACGC	0.0315
UAAGCGA	-0.0917
AGUAUGC	-0.153
UGAUCGG	-0.182
CGAUGUG	-0.226
GGCAGAA	0.572
GGUCAUU	-0.0319

Single results of other studies
Substance	target	assay	system	conditions	scale	measurement	result
PhoQ, residues 284 288 289 292 302 303 TLMATV	PhoP, residues 12 14 15 18 19 NHTVL (Escherichia coli, UniProt P23836)	Sort-seq, refers to: YFP reporter	E. coli	PhoQ-PhoP variant library, added: 10 µM Mg2+	relative to: high Mg2+ state, higher = stronger signaling	fold induction	5.77

A few entries again (sample 3):
Strand	7-mer Z-score
UAAGCGA	-0.0917
AGUAUGC	-0.153
UGAUCGG	-0.182
CGAUGUG	-0.226
